Experimental data from different studies.
A part holds a random share of what one study measured. Values joined by “and” are separate records of one study, mostly repeats; a detail may differ.
Sequence of UniProt P42338 (whole entry, looked up): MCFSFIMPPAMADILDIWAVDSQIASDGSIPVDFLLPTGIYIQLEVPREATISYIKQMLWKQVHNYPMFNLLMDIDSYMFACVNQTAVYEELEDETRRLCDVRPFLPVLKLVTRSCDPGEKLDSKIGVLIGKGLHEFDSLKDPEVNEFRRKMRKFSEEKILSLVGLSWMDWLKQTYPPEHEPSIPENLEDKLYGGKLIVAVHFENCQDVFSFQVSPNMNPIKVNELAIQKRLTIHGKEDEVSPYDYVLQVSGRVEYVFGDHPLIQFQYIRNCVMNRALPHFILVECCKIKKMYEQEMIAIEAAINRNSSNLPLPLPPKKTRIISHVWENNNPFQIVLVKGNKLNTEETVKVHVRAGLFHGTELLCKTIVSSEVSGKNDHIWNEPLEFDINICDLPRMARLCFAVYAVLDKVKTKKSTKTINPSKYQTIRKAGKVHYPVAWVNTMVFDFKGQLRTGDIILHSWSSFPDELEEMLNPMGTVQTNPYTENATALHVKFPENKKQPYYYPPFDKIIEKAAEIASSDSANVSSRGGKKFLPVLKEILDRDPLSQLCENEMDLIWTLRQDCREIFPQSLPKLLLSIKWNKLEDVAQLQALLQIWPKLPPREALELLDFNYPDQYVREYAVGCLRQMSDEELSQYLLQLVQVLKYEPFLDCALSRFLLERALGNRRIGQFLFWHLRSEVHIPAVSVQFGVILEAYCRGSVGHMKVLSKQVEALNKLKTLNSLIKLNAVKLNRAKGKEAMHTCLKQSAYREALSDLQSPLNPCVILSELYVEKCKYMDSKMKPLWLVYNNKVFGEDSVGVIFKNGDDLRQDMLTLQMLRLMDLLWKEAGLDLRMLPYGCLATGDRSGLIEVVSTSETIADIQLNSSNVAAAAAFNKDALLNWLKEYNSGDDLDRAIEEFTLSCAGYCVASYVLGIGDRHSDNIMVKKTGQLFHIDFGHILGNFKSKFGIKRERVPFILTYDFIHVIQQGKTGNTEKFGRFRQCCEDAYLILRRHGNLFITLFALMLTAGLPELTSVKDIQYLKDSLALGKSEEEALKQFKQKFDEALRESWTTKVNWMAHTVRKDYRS
Sequence of UniProt Q92918 (whole entry, looked up): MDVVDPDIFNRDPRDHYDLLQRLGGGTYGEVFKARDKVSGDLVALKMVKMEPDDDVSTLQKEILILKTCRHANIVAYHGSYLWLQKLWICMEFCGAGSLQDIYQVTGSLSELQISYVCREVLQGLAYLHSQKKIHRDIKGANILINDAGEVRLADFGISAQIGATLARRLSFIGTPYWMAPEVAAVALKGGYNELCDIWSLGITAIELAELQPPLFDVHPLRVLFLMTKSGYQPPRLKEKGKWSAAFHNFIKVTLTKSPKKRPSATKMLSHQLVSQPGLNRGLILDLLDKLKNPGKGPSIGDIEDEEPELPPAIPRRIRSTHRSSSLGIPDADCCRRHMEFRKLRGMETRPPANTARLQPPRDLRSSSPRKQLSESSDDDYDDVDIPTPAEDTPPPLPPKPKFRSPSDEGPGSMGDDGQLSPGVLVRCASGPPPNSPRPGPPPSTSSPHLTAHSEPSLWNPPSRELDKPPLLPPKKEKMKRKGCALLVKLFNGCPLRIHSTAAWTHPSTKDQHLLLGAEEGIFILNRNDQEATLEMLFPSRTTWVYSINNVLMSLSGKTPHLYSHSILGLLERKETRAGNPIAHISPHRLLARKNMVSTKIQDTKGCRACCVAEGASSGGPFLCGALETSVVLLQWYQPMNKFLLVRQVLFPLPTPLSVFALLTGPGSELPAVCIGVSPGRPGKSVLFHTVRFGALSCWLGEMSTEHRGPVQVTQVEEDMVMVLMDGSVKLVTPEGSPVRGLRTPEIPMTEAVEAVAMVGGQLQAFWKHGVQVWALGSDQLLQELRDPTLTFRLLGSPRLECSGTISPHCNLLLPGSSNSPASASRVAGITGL
Sequence of UniProt P42685 (whole entry, looked up): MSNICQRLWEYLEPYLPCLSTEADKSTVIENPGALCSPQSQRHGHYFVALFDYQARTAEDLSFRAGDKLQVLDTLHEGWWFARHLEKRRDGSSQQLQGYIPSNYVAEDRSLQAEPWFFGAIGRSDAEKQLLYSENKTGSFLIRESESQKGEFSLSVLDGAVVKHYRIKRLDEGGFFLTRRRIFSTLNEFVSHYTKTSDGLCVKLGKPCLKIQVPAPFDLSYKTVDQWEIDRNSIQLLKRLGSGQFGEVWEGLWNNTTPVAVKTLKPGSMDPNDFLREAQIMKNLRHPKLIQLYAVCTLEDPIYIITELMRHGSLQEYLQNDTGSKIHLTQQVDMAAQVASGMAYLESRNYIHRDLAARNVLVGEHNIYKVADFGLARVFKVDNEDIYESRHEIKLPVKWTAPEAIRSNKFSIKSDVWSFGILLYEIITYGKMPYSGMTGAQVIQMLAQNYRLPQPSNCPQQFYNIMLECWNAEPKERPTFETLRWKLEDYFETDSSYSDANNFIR
Sequence of UniProt Q9BYT3 (whole entry, looked up): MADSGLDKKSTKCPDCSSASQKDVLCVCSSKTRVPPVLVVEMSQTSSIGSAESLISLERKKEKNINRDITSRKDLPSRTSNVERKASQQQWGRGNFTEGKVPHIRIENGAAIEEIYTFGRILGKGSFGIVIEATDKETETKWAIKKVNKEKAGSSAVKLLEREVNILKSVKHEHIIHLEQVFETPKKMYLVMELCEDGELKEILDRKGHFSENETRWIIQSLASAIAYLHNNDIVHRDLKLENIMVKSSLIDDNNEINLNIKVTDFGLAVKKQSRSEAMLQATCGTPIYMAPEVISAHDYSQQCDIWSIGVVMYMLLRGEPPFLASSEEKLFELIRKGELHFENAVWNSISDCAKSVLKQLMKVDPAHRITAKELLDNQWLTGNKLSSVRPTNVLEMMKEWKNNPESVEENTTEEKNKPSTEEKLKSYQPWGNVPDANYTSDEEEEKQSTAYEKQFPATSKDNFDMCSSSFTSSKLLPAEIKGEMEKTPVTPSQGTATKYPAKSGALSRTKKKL
Sequence of UniProt P50750 (whole entry, looked up): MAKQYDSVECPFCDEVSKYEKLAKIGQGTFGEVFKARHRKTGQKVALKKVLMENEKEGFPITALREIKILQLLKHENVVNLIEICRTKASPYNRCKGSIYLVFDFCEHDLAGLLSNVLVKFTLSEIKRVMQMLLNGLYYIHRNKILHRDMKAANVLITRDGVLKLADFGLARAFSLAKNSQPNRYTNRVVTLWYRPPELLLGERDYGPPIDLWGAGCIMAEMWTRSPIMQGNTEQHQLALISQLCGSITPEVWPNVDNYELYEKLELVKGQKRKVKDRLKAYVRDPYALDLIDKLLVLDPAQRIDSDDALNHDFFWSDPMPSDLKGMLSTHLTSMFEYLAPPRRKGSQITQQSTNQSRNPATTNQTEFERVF
Sequence of UniProt Q16816 (whole entry, looked up): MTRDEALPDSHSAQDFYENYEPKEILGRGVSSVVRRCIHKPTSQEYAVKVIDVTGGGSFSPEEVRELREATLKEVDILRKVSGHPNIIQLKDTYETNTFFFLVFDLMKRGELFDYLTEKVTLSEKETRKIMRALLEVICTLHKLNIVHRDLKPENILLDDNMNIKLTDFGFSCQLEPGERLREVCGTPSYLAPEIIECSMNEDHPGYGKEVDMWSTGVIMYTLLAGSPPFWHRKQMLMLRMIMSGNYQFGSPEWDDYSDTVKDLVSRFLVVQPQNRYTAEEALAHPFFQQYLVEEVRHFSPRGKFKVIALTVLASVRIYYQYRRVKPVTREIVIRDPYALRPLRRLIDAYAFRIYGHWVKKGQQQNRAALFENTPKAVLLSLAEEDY
Sequence of UniProt P09769 (whole entry, looked up): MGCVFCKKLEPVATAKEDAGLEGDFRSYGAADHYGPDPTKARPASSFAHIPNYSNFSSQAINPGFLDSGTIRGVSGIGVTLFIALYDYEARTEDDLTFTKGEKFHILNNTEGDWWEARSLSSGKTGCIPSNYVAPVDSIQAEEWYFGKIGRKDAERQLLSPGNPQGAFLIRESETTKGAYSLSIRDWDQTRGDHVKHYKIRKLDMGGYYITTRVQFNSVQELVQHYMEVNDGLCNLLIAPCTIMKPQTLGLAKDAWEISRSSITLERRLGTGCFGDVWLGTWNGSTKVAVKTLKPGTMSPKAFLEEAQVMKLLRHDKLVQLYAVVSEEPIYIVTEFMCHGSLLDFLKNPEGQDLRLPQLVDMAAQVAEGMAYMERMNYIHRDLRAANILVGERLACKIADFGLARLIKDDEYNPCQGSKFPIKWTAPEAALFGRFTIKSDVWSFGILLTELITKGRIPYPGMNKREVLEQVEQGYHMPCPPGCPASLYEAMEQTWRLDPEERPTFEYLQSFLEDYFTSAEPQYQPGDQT
Sequence of UniProt Q96GD4 (whole entry, looked up): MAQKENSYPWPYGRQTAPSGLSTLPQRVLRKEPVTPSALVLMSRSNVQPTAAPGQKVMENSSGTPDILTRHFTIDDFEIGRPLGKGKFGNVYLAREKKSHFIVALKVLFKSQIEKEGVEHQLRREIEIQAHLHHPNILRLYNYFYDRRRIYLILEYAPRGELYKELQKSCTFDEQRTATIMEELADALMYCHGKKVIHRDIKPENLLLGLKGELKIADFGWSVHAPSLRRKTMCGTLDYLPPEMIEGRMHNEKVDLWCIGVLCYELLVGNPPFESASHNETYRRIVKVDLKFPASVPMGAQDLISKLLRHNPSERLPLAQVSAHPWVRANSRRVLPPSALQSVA
Sequence of UniProt Q8TDX7 (whole entry, looked up): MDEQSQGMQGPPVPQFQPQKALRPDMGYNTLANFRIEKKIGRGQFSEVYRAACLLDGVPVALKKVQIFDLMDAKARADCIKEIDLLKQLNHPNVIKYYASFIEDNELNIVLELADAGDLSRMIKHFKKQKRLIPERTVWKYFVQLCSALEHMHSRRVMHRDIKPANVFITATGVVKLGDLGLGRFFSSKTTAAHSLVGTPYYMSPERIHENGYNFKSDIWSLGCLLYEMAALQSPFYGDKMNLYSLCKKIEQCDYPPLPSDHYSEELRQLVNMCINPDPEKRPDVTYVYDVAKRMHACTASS

Sample 1
Compound: CN1CCC[C@H]1COc1nc2c(c(N3CCN(C(=O)C4CC4)[C@@H](CC#N)C3)n1)CCN(c1cccc3cccc(Cl)c13)C2
Target: GTPase HRas (HRAS, Homo sapiens, UniProt P01112)
Effect on: binding
Technique: NanoBRET
Cells: HEK293 (live)
Direction: lower = stronger binding
conditions | target engagement
0.5686 µM | 94.2% and 115% and 97.4%
1.523 µM | 114% and 92.7% and 94.9%
1.046 µM | 112% and 92.3% and 101%
0.09151 µM | 102% and 107% and 94.3%

Sample 2
SMILES: C[C@@H]1CN(c2ccc(-c3cc(C(=O)NCCOCCOCCOCCOCCNC(=O)Cn4cc(-c5[nH]cc(C(=O)N[C@@H](CC(N)=O)c6ccc(F)c(Cl)c6)c5-c5ccc(Cl)cc5F)cn4)ccc3F)cc2NC(=O)c2c[nH]c(=O)cc2C(F)(F)F)C[C@H](C)N1C
Effect on: thermal unfolding
Technique: differential scanning fluorimetry
Concentration: 5.5 µM
Direction: higher = more unfolded
WDR5: WD repeat-containing protein 5 (WDR5, Homo sapiens, UniProt P61964)
target | conditions | SYPRO Orange fluorescence
WDR5 | 36.6 °C | 14300 a.u.
WDR5 | 41.2 °C | 14200 a.u.
WDR5 | 92.81 °C | 40500 a.u.
WDR5 | 61.81 °C | 9340 a.u.
WDR5 | 69.21 °C | 6730 a.u.
WDR5 | 27.4 °C | 14800 a.u.
WDR5 | 38.2 °C | 14400 a.u.
WDR5 | 85.21 °C | 39800 a.u.
WDR5 | 57.41 °C | 12300 a.u.
WDR5 | 81.41 °C | 27900 a.u.
DCAF1 (Homo sapiens, UniProt Q9Y4B6) | 36.6 °C | 9340 a.u.

Sample 3
Structure (SMILES): CCC1(c2cccc(-c3cn(C)nc3C)c2)C2=C(Nc3n[nH]cc31)C(F)C(C)(C)CC2=O (single isomer, unassigned)
Concentration: 1 µM
target | test | how to read | remaining binding [%]
ULK2 (Homo sapiens, UniProt Q8IYT8) | kinase binding, KINOMEscan | baseline: DMSO control | 77
EPHA1 (Homo sapiens, UniProt P21709) | kinase binding, KINOMEscan | baseline: DMSO control | 96
CDK9 (Homo sapiens, UniProt P50750) | kinase binding, KINOMEscan | baseline: DMSO control | 100
COQ8B (Homo sapiens, UniProt Q96D53) | binding, competition with immobilised ligand |  | 100
FRK (Homo sapiens, UniProt P42685) | kinase binding, KINOMEscan | baseline: DMSO control | 100
NEK7 (Homo sapiens, UniProt Q8TDX7) | binding, competition with immobilised ligand |  | 100
MARK4 (Homo sapiens, UniProt Q96L34) | binding, competition with immobilised ligand |  | 100
FGR (Homo sapiens, UniProt P09769) | kinase binding, KINOMEscan | baseline: DMSO control | 100
TNNI3K (Homo sapiens, UniProt Q59H18) | binding, competition with immobilised ligand |  | 99
FLT3 (Homo sapiens, UniProt P36888, D835V) | binding, competition with immobilised ligand |  | 89
MAP4K1 (Homo sapiens, UniProt Q92918) | kinase binding, KINOMEscan | baseline: DMSO control | 91
STK33 (Homo sapiens, UniProt Q9BYT3) | binding, competition with immobilised ligand |  | 96
PIK3CB (Homo sapiens, UniProt P42338) | binding, competition with immobilised ligand |  | 100
PHKG1 (Homo sapiens, UniProt Q16816) | binding, competition with immobilised ligand |  | 100
EGFR (Homo sapiens, UniProt P00533, L858R/T790M) | kinase binding, KINOMEscan | baseline: DMSO control | 100
Tyrosine-protein kinase ABL1, phosphorylated (ABL1, Homo sapiens, UniProt P00519, Q252H) | binding, competition with immobilised ligand |  | 64
MAP3K7 (Homo sapiens, UniProt O43318) | kinase binding, KINOMEscan | baseline: DMSO control | 37
Aurora kinase B (AURKB, Homo sapiens, UniProt Q96GD4) | binding, competition with immobilised ligand |  | 65

Sample 4
Structure (SMILES): Cc1ccc(O)c(C)c1-c1cnc2[nH]c(-c3cnc(N4CCC(CN5CCN(c6cc7c(cc6F)n(C6CCC(=O)NC6=O)c(=O)n7C)CC5)CC4)nc3)cc2c1C#N (stereo not shown)
Target: Membrane-associated tyrosine- and threonine-specific cdc2-inhibitory kinase (PKMYT1, Homo sapiens, UniProt Q99640)
Construct (Q99640 1-499): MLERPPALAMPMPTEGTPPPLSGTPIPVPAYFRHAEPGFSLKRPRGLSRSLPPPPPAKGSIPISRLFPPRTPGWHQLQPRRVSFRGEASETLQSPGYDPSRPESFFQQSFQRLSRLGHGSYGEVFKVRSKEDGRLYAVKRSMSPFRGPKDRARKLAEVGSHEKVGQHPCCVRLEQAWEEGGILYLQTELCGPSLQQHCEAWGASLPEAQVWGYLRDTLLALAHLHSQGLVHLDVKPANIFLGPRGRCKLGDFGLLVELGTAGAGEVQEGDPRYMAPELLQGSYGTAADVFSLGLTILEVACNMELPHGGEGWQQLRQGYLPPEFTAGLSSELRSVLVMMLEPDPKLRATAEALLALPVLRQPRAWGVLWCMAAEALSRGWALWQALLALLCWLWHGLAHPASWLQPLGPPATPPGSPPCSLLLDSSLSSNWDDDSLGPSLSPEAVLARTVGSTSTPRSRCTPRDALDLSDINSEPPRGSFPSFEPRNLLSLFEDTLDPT
test | conditions | inhibition [%]
cell-free assay, inhibitor, TR-FRET | 0.1111 µM | 99
cell-free assay, inhibitor, TR-FRET | 4.12 nM | 55.1
 | 1 µM | 100
 | 0.000152 µM | 3.37
 | 0.3333 µM | 99.4
cell-free assay, inhibitor, TR-FRET | 1.37 nM | 21.5
cell-free assay, inhibitor, TR-FRET | 51 pM | -0.458
cell-free assay, inhibitor, TR-FRET | 152 pM | 1.67
 | 0.00046 µM | 7.59
 | 0.1111 µM | 98.5
